Measured values collected from several papers.
Parts stem from different laboratories: compare values within a part only. Values joined by “and” are separate records of one study, mostly repeats; a detail may differ.
Chain of UniProt Q9H2X6 (whole entry, looked up): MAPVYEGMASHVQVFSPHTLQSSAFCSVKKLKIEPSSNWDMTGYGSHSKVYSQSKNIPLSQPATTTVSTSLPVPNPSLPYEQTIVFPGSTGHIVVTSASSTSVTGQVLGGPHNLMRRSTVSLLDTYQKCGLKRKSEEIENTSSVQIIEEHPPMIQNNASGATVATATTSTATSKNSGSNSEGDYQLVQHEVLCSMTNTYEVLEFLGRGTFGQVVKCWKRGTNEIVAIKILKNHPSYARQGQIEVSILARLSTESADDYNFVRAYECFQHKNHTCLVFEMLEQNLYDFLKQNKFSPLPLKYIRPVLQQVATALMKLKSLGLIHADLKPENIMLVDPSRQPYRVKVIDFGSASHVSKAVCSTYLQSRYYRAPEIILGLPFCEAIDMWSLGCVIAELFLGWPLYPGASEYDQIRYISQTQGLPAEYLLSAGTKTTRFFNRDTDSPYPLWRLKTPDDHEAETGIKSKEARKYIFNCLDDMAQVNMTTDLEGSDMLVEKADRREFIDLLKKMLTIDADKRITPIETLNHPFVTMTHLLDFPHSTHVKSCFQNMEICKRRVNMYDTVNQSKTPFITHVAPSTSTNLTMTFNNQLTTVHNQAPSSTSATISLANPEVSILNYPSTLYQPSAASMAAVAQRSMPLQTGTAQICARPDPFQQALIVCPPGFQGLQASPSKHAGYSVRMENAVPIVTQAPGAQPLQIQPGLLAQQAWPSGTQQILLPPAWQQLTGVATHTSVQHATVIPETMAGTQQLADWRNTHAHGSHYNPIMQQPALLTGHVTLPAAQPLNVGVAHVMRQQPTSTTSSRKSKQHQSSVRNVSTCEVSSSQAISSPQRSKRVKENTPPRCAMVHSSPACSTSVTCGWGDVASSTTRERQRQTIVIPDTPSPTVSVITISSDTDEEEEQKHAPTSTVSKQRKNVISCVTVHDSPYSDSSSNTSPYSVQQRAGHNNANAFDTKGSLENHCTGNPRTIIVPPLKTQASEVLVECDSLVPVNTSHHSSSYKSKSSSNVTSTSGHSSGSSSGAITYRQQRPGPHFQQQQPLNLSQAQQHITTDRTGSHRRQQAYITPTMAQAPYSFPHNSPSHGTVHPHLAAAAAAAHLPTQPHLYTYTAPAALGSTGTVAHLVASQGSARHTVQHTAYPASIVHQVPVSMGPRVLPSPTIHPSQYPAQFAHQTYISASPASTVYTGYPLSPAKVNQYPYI
Chain of UniProt P10721 (whole entry, unmodified, looked up): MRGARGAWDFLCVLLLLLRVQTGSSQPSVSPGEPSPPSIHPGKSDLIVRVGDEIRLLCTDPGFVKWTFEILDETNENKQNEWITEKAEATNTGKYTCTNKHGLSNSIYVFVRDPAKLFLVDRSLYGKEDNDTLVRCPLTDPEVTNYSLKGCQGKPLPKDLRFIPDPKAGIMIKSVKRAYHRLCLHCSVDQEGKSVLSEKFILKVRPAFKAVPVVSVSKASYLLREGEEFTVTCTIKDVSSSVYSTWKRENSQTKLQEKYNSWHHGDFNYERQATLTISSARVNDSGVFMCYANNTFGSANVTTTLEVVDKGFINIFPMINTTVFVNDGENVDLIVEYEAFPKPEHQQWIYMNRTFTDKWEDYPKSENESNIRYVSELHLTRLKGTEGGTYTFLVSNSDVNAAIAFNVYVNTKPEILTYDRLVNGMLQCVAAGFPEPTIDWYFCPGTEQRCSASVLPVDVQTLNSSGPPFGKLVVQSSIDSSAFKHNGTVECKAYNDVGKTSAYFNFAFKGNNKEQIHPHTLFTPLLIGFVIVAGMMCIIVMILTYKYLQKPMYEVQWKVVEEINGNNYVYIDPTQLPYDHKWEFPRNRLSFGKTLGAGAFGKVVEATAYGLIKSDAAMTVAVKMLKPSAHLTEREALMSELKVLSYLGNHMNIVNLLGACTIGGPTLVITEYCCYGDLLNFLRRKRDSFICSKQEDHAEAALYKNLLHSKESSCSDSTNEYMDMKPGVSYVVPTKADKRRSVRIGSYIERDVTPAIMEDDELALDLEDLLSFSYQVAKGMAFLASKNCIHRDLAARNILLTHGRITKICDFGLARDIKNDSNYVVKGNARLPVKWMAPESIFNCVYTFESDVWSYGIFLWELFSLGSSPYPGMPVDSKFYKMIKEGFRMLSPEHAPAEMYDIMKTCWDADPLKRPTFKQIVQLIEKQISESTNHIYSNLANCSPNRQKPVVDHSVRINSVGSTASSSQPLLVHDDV
Chain of UniProt P51813 (whole entry, looked up): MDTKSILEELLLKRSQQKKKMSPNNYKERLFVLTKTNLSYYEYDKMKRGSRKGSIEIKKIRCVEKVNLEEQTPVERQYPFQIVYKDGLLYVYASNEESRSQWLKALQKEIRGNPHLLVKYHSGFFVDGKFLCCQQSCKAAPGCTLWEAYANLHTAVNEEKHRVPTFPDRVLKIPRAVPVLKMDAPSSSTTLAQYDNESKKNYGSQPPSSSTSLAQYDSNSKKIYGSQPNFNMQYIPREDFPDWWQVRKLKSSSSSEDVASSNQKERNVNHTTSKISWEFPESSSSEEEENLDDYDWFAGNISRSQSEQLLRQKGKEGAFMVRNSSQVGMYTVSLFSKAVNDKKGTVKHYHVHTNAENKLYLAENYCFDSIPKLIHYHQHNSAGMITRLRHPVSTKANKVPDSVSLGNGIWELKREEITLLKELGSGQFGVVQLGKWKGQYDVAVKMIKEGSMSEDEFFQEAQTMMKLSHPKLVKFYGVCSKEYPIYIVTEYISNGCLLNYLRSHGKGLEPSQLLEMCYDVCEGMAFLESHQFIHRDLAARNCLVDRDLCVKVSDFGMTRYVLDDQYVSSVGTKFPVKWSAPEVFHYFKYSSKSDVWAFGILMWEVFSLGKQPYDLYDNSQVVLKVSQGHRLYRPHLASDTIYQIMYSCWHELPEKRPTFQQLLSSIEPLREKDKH
Chain of UniProt P53778 (whole entry, looked up): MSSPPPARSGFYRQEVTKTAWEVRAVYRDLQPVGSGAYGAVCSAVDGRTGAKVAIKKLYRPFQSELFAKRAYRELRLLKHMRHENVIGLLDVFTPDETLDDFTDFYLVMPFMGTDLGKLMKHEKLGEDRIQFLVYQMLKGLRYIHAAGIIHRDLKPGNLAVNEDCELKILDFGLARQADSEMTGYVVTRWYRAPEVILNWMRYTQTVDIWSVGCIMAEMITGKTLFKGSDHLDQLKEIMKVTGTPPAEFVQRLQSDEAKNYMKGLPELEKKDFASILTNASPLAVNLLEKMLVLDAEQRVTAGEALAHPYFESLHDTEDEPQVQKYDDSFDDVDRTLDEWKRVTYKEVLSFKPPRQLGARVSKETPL

Block 1 — technique: competition with immobilised ligand; concentration: 1 µM
Structure (SMILES): Cc1noc([C@H]2C[C@@H](c3ccc(C(F)(F)F)cc3)CN(C(=O)N3CCS(=O)(=O)C3)C2)n1
It gave 100% for remaining binding (HIPK2 (Homo sapiens, UniProt Q9H2X6); cell-free assay).
It gave 82% for remaining binding (GRK1 (Homo sapiens, UniProt Q15835); cell-free assay).
For Ribosomal protein S6 kinase alpha-4, C-terminal kinase domain (RPS6KA4, Homo sapiens, UniProt O75676); cell-free assay: remaining binding read 100%.
The remaining binding was 100% (PRKCI (Homo sapiens, UniProt P41743); cell-free assay).
The remaining binding was 89% (SRMS (Homo sapiens, UniProt Q9H3Y6); cell-free assay).
KIT (Homo sapiens, UniProt P10721, T670I/V559D); cell-free assay — remaining binding: 100%.
It gave 100% for remaining binding (ACVRL1 (Homo sapiens, UniProt P37023); binding).
For BMX (Homo sapiens, UniProt P51813); cell-free assay: remaining binding read 100%.
The remaining binding was 98% (SLK (Homo sapiens, UniProt Q9H2G2); cell-free assay).
KIT (Homo sapiens, UniProt P10721, L576P); cell-free assay — remaining binding: 100%.

Block 2 — technique: competition with immobilised ligand; concentration: 1 µM
Compound: C[C@H]1CC[C@H](n2c3cnccc3c3cnc(Nc4ccc5c(n4)CCN(C(=O)CO)C5)nc32)CC1
VRK2 (Homo sapiens, UniProt Q86Y07); binding — remaining binding: 94%.
Ribosomal protein S6 kinase alpha-6, N-terminal kinase domain (RPS6KA6, Homo sapiens, UniProt Q9UK32); binding — remaining binding: 40%.
The remaining binding was 52% (DDR1 (Homo sapiens, UniProt Q08345); cell-free assay).
For Non-receptor tyrosine-protein kinase TYK2, JH1 (TYK2, Homo sapiens, UniProt P29597); cell-free assay: remaining binding read 47%.
It gave 100% for remaining binding (MAPK12 (Homo sapiens, UniProt P53778); binding).
For HIPK2 (Homo sapiens, UniProt Q9H2X6); binding: remaining binding read 28%.

Block 3 — observed: enzyme activity; mode: inhibitor; concentration: 0.5 µM; baseline: control
Target: Insulin receptor (INSR, Homo sapiens, UniProt P06213)
Chain of UniProt P06213 (whole entry, looked up): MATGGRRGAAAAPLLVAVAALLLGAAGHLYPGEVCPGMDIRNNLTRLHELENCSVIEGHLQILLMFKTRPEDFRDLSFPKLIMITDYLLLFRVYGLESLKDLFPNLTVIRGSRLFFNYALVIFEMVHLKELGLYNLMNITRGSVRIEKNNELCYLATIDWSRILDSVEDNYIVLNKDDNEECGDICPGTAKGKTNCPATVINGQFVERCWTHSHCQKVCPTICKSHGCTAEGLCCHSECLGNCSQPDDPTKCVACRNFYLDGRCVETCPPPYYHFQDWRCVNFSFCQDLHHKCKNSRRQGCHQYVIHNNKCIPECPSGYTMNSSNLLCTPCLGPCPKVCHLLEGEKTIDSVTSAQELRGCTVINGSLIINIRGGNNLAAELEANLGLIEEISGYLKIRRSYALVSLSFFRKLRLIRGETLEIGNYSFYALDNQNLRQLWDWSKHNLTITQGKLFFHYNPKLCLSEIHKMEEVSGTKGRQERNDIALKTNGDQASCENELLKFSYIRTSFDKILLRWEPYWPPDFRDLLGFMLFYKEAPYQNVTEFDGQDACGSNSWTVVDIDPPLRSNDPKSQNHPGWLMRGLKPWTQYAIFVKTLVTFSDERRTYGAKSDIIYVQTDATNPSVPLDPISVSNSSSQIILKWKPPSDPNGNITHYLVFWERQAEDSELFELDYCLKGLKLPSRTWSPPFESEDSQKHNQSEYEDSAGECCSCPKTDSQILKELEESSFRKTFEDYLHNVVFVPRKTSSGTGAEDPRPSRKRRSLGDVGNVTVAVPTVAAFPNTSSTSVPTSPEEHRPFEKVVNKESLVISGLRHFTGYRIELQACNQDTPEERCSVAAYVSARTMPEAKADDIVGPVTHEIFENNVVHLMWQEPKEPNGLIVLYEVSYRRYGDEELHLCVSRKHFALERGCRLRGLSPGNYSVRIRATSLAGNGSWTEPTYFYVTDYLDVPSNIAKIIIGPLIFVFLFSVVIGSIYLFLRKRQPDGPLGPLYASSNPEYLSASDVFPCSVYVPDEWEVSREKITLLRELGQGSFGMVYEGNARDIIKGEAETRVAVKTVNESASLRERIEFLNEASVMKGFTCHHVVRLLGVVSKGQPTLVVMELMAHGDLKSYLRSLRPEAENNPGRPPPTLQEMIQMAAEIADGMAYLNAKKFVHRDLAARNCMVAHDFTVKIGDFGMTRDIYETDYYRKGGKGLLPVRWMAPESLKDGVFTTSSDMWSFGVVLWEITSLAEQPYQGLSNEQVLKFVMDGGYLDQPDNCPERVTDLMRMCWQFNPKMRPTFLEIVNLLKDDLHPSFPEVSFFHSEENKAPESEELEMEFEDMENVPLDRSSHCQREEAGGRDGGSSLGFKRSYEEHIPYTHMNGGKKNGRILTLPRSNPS
O=S(=O)(c1cccc2cnccc12)N1CCCNCC1 has a remaining activity of 95%.
For Oc1ccc(-c2nc(-c3ccncc3)c(-c3ccc(F)cc3)[nH]2)cc1, the remaining activity was 91.5%.
With COc1cc2nccc(Oc3ccc(NC(=S)NC(=O)c4ccccc4C)cc3)c2cc1OC the remaining activity was 100%.
For NCCNc1ncc(C(N)=O)c(Nc2cccc(C(F)(F)F)c2)n1, the remaining activity was 80%.
O=C1NC(=O)C(c2cn(CCCO)c3ncccc23)=C1c1cnccn1 has a remaining activity of 92.9%.
Nc1ncnc2n[nH]c(Nc3ccc(F)cc3)c12 has a remaining activity of 98.5%.
CCOC(=O)c1c(C)[nH]c(/C=C2\C(=O)Nc3ccccc32)c1C gave a remaining activity of 90.6%.
N#CC(C#N)=C(N)/C(C#N)=C/c1ccc(O)cc1 has a remaining activity of 94.2%.
With CC(C)[C@H](CO)Nc1nc(Nc2cc(N)cc(Cl)c2)c2ncn(C(C)C)c2n1 the remaining activity was 85%.
For Cc1nc(-c2ccccc2)c(-c2ccncc2)o1, the remaining activity was 85.6%.
For CO[C@H]1C[C@@H]2CC[C@@H](C)[C@@](O)(O2)C(=O)C(=O)N2CCCC[C@H]2C(=O)O[C@H]([C@H](C)C[C@@H]2CC[C@@H](O)[C@H](OC)C2)CC(=O)[C@H](C)/C=C(\C)[C@@H](O)[C@@H](OC)C(=O)[C@H](C)C[C@H](C)/C=C/C=C/C=C/1C, the remaining activity was 90.3%.
With OCC(O)CCON=C1C(c2c(O)[nH]c3ccccc23)=Nc2ccccc21 (stereo not shown) the remaining activity was 44.9%.
For O=C1NC(=O)C(c2cn(CCCn3ccnc3)c3ccccc23)=C1Nc1ccccc1, the remaining activity was 84.4%.
With Nc1[nH]nc2nc3ccccc3nc12 the remaining activity was 95.3%.
For Cn1c2ccccc2c2c3c(c4c5ccccc5n(CCC#N)c4c21)CNC3=O, the remaining activity was 89.3%.

Block 4 — mode: degrader
Structure (SMILES): O=C1CCC(N2Cc3cc(C4CCN(Cc5ccccc5)CC4)ccc3C2=O)C(=O)N1 (stereo not shown)
GSPT1: Eukaryotic peptide chain release factor GTP-binding subunit ERF3A (GSPT1, Homo sapiens, UniProt P15170)
Chain of UniProt P15170 (whole entry, looked up): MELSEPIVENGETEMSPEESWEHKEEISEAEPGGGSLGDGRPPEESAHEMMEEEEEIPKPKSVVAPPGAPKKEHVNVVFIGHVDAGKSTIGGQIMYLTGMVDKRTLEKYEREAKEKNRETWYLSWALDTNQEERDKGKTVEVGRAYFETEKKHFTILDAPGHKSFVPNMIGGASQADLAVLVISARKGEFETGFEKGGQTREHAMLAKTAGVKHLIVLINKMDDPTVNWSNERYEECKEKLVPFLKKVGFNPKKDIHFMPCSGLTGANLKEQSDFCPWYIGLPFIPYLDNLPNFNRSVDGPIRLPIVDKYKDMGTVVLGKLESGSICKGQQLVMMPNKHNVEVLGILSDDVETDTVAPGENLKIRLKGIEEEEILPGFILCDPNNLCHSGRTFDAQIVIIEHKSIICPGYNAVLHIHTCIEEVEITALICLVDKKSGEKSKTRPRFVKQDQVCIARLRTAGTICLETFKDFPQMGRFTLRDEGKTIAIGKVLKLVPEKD
It gave 89.1% for remaining protein (GSPT1; HiBiT; HEK293; 0.004572 µM, 6 h).
The remaining protein was 71.1% (CRBN/Zinc finger protein Helios (Homo sapiens, UniProt Q96SW2+Q9UKS7); flow cytometry; primary human regulatory T cells; 0.03704 µM, 6 h).
It gave 108% and 102% for remaining protein (GSPT1; HiBiT; HEK293; 0.0005081 µM).
GSPT1; HiBiT; HEK293; 0.001524 µM — remaining protein: 114% and 86.8%.
The remaining protein was 93.8% (DNA-binding protein Ikaros (Homo sapiens, UniProt Q13422); HiBiT; HEK293; 0.004572 µM, 6 h).
The remaining protein was 112% (Zinc finger protein Eos (IKZF4, Homo sapiens, UniProt Q9H2S9); HiBiT; HEK293; 0.1111 µM, 3 h).

Excerpt of the above (block 4):
It gave 108% and 102% for remaining protein (GSPT1; HiBiT; HEK293; 0.0005081 µM).
GSPT1; HiBiT; HEK293; 0.001524 µM — remaining protein: 114% and 86.8%.
The remaining protein was 93.8% (DNA-binding protein Ikaros (Homo sapiens, UniProt Q13422); HiBiT; HEK293; 0.004572 µM, 6 h).
The remaining protein was 112% (Zinc finger protein Eos (IKZF4, Homo sapiens, UniProt Q9H2S9); HiBiT; HEK293; 0.1111 µM, 3 h).
